Published values from different studies.
Protocols differ between the studies behind these lines. Values joined by “and” are separate records of one study, mostly repeats; a detail may differ. ± gives the spread as reported.

| SMILES | test | system | setting | scale | endpoint | result |
| --- | --- | --- | --- | --- | --- | --- |
| C[C@@H](c1ccc2nccn2c1)n1nnc2ncc(-c3cnn(C)c3)nc21 | refers to: drug hypersensitivity | EGFR-mutant MET-altered NSCLC patients | oral, dose not given, AE grade ≥3, all |  | incidence of treatment-related AEs | 1% |
| Cc1ccc(C(=O)N(CCCN)C(c2nc3snc(C)c3c(=O)n2Cc2ccccc2)C(C)C)cc1 (stereo not drawn) | refers to: Hypokalemia | human patients | intravenous, 16 mg/day, CTCAE grade ≥3 |  | patients with adverse events | 22% |
| OC[C@H]1O[C@@H](Oc2cc3c(O)cc(O)cc3[o+]c2-c2ccc(O)c(O)c2)[C@H](O)[C@@H](O)[C@@H]1O | CIELAB from visible spectra | aqueous buffer | 50 µM, pH 7, ±BSA 600 µM or lysozyme 1000 µM |  | hue angle | 17.8 ± 0.93 degrees |
| CC(C)c1nc(N(C)S(C)(=O)=O)nc(-c2ccc(F)cc2)c1/C=C/[C@@H](O)C[C@@H](O)CC(=O)O |  | human | oral, 10 mg, compound alone |  | participants with TRAE headache | 0% |
| CNCc1ccc(-c2[nH]c3cc(F)cc4c3c2CCNC4=O)cc1 |  | human patients | oral, 600 mg twice daily, grade 4 |  | nausea incidence | 0% |
| CCN1CCN(Cc2ccc(NC(=O)c3ccc(C)c(NC(=O)c4cncc(-c5cccs5)c4)c3)cc2C(F)(F)F)CC1 |  | C57BL/6 mice, plasma | intraperitoneal, 20 mg/kg |  | extrapolated AUC share | 9.88% |
| CCCCOc1ccc([C@H]2CC[C@H](CCC)CC2)c(F)c1F |  | rat, placenta | 1000 ng/mL in perfusate, middle dose, mixture of 21 LCMs |  | median placental accumulation | 10.6 ng/g |
| Cc1cc(Nc2cc3ncccc3c(N[C@@H]3C[C@H]4CC[C@@H](C3)N4CCC#N)n2)n[nH]1 |  | human, plasma | 80 mg, day 14, geometric mean |  | AUC(0-4) | 3.62 ng·h/mL |
| Cc1ccc(Sc2ccccc2N2CCNCC2)c(C)c1 | refers to: Nausea | healthy adult men | oral, 2.5 mg single dose |  | participants with TEAE | 0% |
| O=C(O)CCC(=O)O.[2H]C([2H])([2H])Oc1cc(C)c2[nH]ccc2c1CN1CC[C@@H](C2CC2)C[C@H]1c1ccc(C(=O)O)cc1 |  | human, plasma | 50 mg twice daily, day 10, multiple ascending dose, median |  | Tmax | 2 h |
| CNc1ccc(-c2nc3ccc(O)cc3s2)cc1 [carbon-11 labelled] | ex vivo biodistribution | APP/PS1 mouse, AD model, feces | intravenous, 30 min |  | SUV | 0.922 ± 0.819 |
| COc1ccc2[nH]cc(CCNC(=O)Nc3ccc(Cl)c(Cl)c3)c2c1 |  | aqueous buffer | pH 7.4 |  | thermodynamic solubility | < 7.14 µM |
| C=CC(=O)Nc1cc(Nc2nccc(-c3cn(C)c4ccccc34)n2)c(OC)cc1N(C)CCN(C)C | storage stability | human plasma | 2 h, -80 °C, HQC level |  | recovery | 99% |
| Cc1ccc([C@@H]2O[C@H](CO)[C@@H](O)[C@H](O)[C@H]2O)cc1Cc1ccc(-c2ccc(F)cc2)s1 |  | Japanese type 2 diabetes patients | 400 mg, day 18, 24 h urine collection | baseline: baseline | urinary sodium excretion change | -11.8 mEq |
| O=S(=O)(c1ccc(-c2ccc3nccc(Nc4ccncn4)c3c2)cc1)N1CCOCC1 |  | female BALB/c mice, brain | intraperitoneal, 10 mg/kg, 4 h, mean, below LLOQ as zero |  | brain concentration | 0 ng/mL |
| COc1ccc2c(c1)CN(C(=O)CCN1CCC(Cc3ccccc3)CC1)CC[S@@+]2[O-] |  | rat plasma | 100 ng/mL |  | fu | 0.255 |
| Cn1cc([C@H]2C[C@H]3CSC(N)=N[C@@]3(c3ccc(F)cc3F)CO2)cn1 |  | male 129/SVE mouse, CSF | subcutaneous, 50 mg/kg, 13 h |  | CSF concentration | 89 nM |
| CN1C(=O)[C@@H](NC(=O)c2nnc(Cc3ccccc3)[nH]2)COc2cccnc21 | phase I multiple ascending dose | human, male and female | oral, 200 mg, 14 days |  | medical device site reaction incidence | 0% |
| COc1ccnc(C(=O)N[C@@H](CO)C(=O)O[C@@H](C)[C@H](O)[C@@H](Cc2ccccc2)C(=O)O)c1O |  | bovine muscle | -18 °C |  | storage stability | 3 months |
| O=C(COc1ccc(Cl)cc1)NC12CC(c3nnc([C@H]4C[C@@H](OC(F)(F)F)C4)o3)(C1)C2 | postural dizziness | human, both sexes | oral, dose not given, single ascending dose, fasted, all doses | baseline: subjects | treatment-emergent adverse events | 19.4% |
| Cc1c(-c2ccc(N3CCc4cccc(C(=O)Nc5nc6ccccc6s5)c4C3)nc2C(=O)O)cnn1CC12CC3(C)CC(C)(C1)CC(OCCNCC[C@H](O)CO)(C3)C2 |  | anaesthetized male beagle dog | iv infusion, 0.3 mg/kg/min, 45 min |  | plasma concentration | 9.48 ng/mL and 3.84 ng/mL |
